Published values of several laboratories.
Compare with care: the assays were run in different laboratories. Values joined by “and” are separate records of one study, mostly repeats; a detail may differ. Numbers after ± are the reported error. Converted amounts (≈) assume the structure as drawn.

| SMILES | assay | system | setting | quantity | value |
| --- | --- | --- | --- | --- | --- |
| CC(C)C[C@H](NC(=O)[C@H](Cc1ccc(O)cc1)NC(=O)[C@@H](CCCNC(=N)N)NC(=O)[C@@H](CO)NC(=O)[C@H](Cc1ccccc1)NC(=O)[C@H](CC1CCCCC1)NC(=O)[C@H](CC(=O)O)NC(=O)CN1CCN(CC(=O)O)CCN(CC(=O)O)CCN(CC(=O)O)CC1)C(=O)N[C@@H](Cc1c[nH]c2ccccc12)C(=O)N[C@@H](CO)C(=O)O [copper-64 labelled] | – | human, red marrow | concentration not given, 24 h | activity concentration | 508 Bq/mL and 327 Bq/mL and 490 Bq/mL and 279 Bq/mL and 494 Bq/mL and 558 Bq/mL |
| CC(C)C[C@@H](NC(=O)[C@@H](CC(C)C)NC(=O)[C@@H](CC(=O)O)NC(=O)[C@@H](CC(C)C)NC(=O)[C@@H](CC(C)C)NC(=O)[C@@H](CC(C)C)NC(=O)[C@H](NC(=O)[C@@H](CC(=O)O)NC(=O)[C@H](NC(=O)[C@H]1CCCN1C(=O)[C@@H](Cc1ccccc1)NC(=O)[C@@H](CC(C)C)NC(=O)[C@@H](CC(C)C)NC(=O)[C@@H](CC(=O)O)NC(=O)[C@@H](CC(C)C)NC(=O)[C@@H](Cc1ccc(O)cc1)NC(=O)[C@@H](C)NC(=O)[C@@H](CCCNC(=N)N)NC(=O)[C@@H](Cc1c[nH]c2ccccc12)NC(=O)[C@H]1CCCN1C(=O)[C@@H](CC(N)=O)NC(=O)[C@@H](CCC(N)=O)NC(=O)[C@@H](CC(=O)O)NC(=O)[C@@H](CC(=O)O)NC(=O)[C@@H](CSC1CC(=O)N(CCNC(=O)CN2CCN(CC(=O)O)CCN(CC(=O)O)CC2)C1=O)NC(=O)[C@@H](C)N)[C@H](C)O)[C@H](C)O)C(=O)N[C@H](Cc1c[nH]c2ccccc12)C(=O)O (some centres unmarked) [fluorine-18 labelled] | – | male nude mouse, U-87 MG xenograft, blood | intravenous, 6 h | blood uptake | 10.7 %ID/g |
| CC(C)C[C@H](NC(=O)[C@@H](CCCCNC(=O)[C@@H](Cc1ccccc1)NC(=O)CCCCCNC(=O)CN1CCN(CC(=O)O)CCN(CC(=O)O)CCN(CC(=O)O)CC1)NC(=O)[C@H](Cc1ccc(O)cc1)NC(=O)[C@H](CO)NC(=O)[C@H](Cc1c[nH]c2ccccc12)NC(=O)[C@H](Cc1c[nH]cn1)NC(=O)[C@@H]1CCC(=O)N1)C(=O)N[C@@H](CCCNC(=N)N)C(=O)N1CCC[C@H]1C(=O)NCC(N)=O [indium-111 labelled] | – | female athymic nude mice, blood | intravenous, 0.037 MBq, 4 h | tissue uptake | 0.01 ± 0.01 %ID/g |
| CCCC[C@H](NC(=O)COCCOCCNC(=O)CN1CCN(CC(=O)O)CCN(CC(=O)O)CC1)C(=O)N[C@H]1CC(=O)NCCCC[C@@H](C(N)=O)NC(=O)[C@H](Cc2c[nH]c3ccccc23)NC(=O)[C@H](CCCNC(=N)N)NC(=O)[C@@H](Cc2ccccc2)NC(=O)[C@H](Cc2c[nH]cn2)NC1=O [technetium-99m labelled] | – | C57 mouse, blood | intravenous, 0.037 MBq, 0.5 h | tissue uptake | 3.36 ± 1.34 %ID/g |
| O=C(CCCc1cn(C[C@H]2O[C@@H]3O[C@H]4[C@H](O)[C@@H](O)[C@@H](O[C@H]5[C@H](O)[C@@H](O)[C@@H](O[C@H]6[C@H](O)[C@@H](O)[C@@H](O[C@H]7[C@H](O)[C@@H](O)[C@@H](O[C@H]8[C@H](O)[C@@H](O)[C@@H](O[C@H]2[C@H](O)[C@H]3O)O[C@@H]8Cn2cc(CCCC(=O)N[C@H]3CCOC3=O)nn2)O[C@@H]7Cn2cc(CCCC(=O)N[C@H]3CCOC3=O)nn2)O[C@@H]6Cn2cc(CCCC(=O)N[C@H]3CCOC3=O)nn2)O[C@@H]5Cn2cc(CCCC(=O)N[C@H]3CCOC3=O)nn2)O[C@@H]4Cn2cc(CCCC(=O)N[C@H]3CCOC3=O)nn2)nn1)N[C@H]1CCOC1=O | NMR | water | 20 °C | solubility | 2.6 mM (≈ 5.97 mg/mL) |
| C[C@@H](O)[C@@H]1NC(=O)[C@H](CCCCN)NC(=O)[C@@H](Cc2c[nH]c3ccccc23)NC(=O)[C@H](Cc2ccc(O)cc2)NC(=O)[C@@H](NC(=O)[C@@H](Cc2ccccc2)NC(=O)CN2CCN(CC(=O)O)CCN(CC(=O)O)CCN(CC(=O)O)CC2)CSSC[C@@H](C(=O)N[C@H](CO)[C@@H](C)O)NC1=O [gallium-67 labelled] | gamma counting | ICR mice, male, bone | iv, 11 kBq/mouse, 1 h | tissue uptake | 2.48 ± 0.59 %ID/g |
| CO[C@@H]1[C@@H](OC)[C@H]2O[C@H]3[C@H](OC)[C@@H](OC)[C@@H](O[C@H]4[C@H](OC)[C@@H](OC)[C@@H](O[C@H]5[C@H](OC)[C@@H](OC)[C@@H](O[C@H]6[C@H](OC)[C@@H](OC)[C@@H](O[C@H]7[C@H](OC)[C@@H](OC)[C@@H](O[C@@H]1[C@@H](Cn1cc(CCCC(=O)N[C@H]8CCOC8=O)nn1)O2)O[C@@H]7Cn1cc(CCCC(=O)N[C@H]2CCOC2=O)nn1)O[C@@H]6Cn1cc(CCCC(=O)N[C@H]2CCOC2=O)nn1)O[C@@H]5Cn1cc(CCCC(=O)N[C@H]2CCOC2=O)nn1)O[C@@H]4Cn1cc(CCCC(=O)N[C@H]2CCOC2=O)nn1)O[C@@H]3Cn1cc(CCCC(=O)N[C@H]2CCOC2=O)nn1 | NMR | water | 20 °C | solubility | 8.7 mM (≈ 21.4 mg/mL) |
| CCCC[C@H](NC(=O)CCCCCCCNC(=O)CN1CCN(CC(=O)O)CCN(CC(=O)O)CC1)C(=O)N[C@H]1CC(=O)NCCCC[C@@H](C(N)=O)NC(=O)[C@H](Cc2c[nH]c3ccccc23)NC(=O)[C@H](CCCNC(=N)N)NC(=O)[C@@H](Cc2ccccc2)NC(=O)[C@H](Cc2c[nH]cn2)NC1=O [technetium-99m labelled] | – | C57 mouse, pancreas | intravenous, 0.037 MBq, 24 h | tissue uptake | 0.04 ± 0.03 %ID/g |

A few entries again:
| SMILES | assay | system | setting | quantity | value |
| --- | --- | --- | --- | --- | --- |
| O=C(CCCc1cn(C[C@H]2O[C@@H]3O[C@H]4[C@H](O)[C@@H](O)[C@@H](O[C@H]5[C@H](O)[C@@H](O)[C@@H](O[C@H]6[C@H](O)[C@@H](O)[C@@H](O[C@H]7[C@H](O)[C@@H](O)[C@@H](O[C@H]8[C@H](O)[C@@H](O)[C@@H](O[C@H]2[C@H](O)[C@H]3O)O[C@@H]8Cn2cc(CCCC(=O)N[C@H]3CCOC3=O)nn2)O[C@@H]7Cn2cc(CCCC(=O)N[C@H]3CCOC3=O)nn2)O[C@@H]6Cn2cc(CCCC(=O)N[C@H]3CCOC3=O)nn2)O[C@@H]5Cn2cc(CCCC(=O)N[C@H]3CCOC3=O)nn2)O[C@@H]4Cn2cc(CCCC(=O)N[C@H]3CCOC3=O)nn2)nn1)N[C@H]1CCOC1=O | NMR | water | 20 °C | solubility | 2.6 mM (≈ 5.97 mg/mL) |
